Results collected from several papers.
Protocols differ between the studies behind these lines.
UniProt P35372, sequence (whole entry, looked up): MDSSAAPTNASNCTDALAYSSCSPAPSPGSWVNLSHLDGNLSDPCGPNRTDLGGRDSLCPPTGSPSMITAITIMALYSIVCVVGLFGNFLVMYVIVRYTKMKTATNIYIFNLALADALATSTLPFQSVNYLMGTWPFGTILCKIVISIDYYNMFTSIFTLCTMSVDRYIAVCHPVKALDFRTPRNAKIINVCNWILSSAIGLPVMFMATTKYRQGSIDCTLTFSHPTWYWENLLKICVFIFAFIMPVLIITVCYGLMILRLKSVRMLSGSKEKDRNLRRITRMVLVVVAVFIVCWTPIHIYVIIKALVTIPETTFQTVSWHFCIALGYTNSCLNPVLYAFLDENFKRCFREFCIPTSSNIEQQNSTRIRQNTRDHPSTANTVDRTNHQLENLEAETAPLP
UniProt O75914, sequence (whole entry, looked up): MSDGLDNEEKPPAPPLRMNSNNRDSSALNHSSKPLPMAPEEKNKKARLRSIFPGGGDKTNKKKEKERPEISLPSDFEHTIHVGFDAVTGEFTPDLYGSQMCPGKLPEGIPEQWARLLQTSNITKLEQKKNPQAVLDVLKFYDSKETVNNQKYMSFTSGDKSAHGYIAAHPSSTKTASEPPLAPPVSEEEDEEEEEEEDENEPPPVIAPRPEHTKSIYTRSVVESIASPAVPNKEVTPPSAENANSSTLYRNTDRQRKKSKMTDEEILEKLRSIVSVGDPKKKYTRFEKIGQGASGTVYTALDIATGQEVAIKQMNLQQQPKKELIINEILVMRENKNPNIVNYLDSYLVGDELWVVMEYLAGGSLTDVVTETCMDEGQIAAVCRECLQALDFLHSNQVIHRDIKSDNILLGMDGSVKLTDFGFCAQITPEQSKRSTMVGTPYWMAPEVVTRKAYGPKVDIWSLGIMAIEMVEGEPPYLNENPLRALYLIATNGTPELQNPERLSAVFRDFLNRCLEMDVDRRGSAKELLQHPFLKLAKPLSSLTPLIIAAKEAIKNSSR
UniProt Q12852, sequence (whole entry, looked up): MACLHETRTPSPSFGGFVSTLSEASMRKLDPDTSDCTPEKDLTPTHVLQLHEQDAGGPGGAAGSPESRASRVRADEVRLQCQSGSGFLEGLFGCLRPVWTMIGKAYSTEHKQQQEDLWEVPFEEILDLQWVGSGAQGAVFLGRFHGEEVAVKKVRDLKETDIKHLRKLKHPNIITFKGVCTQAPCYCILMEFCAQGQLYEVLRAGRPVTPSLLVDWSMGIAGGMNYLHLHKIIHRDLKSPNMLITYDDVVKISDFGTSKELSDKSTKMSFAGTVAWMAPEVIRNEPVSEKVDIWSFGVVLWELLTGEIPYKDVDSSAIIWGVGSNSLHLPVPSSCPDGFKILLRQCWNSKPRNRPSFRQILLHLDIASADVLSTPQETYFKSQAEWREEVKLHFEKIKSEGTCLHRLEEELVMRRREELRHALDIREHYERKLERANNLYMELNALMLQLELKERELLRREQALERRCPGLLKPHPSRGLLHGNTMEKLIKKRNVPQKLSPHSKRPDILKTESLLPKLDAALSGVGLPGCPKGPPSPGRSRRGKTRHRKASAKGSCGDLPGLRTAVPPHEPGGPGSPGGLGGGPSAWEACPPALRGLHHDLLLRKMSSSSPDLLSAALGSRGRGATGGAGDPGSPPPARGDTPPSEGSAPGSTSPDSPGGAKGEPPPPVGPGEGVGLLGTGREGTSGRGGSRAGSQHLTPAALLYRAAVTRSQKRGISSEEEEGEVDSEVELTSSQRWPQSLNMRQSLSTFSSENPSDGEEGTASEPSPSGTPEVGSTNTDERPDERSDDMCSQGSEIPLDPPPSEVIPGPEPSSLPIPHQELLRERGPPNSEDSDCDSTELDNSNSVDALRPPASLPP
UniProt Q13546, sequence (whole entry, looked up): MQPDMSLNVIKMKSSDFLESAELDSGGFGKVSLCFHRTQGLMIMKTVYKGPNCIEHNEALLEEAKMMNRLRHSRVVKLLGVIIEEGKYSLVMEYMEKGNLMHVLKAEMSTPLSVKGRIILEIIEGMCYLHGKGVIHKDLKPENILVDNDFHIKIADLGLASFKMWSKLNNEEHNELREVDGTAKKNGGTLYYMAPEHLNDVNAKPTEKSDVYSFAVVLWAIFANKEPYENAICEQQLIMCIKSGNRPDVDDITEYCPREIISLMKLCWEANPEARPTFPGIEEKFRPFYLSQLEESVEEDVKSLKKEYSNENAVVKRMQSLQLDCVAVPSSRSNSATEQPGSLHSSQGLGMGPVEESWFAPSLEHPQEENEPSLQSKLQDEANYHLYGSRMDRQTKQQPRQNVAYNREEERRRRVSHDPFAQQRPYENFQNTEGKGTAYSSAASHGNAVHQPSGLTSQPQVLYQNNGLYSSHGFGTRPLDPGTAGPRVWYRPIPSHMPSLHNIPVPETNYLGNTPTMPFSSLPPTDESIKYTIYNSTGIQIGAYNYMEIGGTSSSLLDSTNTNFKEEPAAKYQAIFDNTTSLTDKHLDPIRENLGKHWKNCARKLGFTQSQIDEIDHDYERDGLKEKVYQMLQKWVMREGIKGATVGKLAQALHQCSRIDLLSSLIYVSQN
UniProt P21728, sequence (whole entry, looked up): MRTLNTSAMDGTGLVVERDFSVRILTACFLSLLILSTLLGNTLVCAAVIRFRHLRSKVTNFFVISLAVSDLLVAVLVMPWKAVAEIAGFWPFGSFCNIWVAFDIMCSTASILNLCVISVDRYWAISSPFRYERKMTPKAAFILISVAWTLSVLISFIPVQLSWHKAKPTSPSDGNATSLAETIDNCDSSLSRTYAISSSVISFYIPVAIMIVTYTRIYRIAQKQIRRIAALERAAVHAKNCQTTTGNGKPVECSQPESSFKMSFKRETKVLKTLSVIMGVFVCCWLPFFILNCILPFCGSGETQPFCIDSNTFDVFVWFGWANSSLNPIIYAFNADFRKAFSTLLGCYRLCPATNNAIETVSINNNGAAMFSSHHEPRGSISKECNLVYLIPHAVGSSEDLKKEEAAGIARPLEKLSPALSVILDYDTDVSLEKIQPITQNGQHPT
UniProt P42336, sequence (whole entry, looked up): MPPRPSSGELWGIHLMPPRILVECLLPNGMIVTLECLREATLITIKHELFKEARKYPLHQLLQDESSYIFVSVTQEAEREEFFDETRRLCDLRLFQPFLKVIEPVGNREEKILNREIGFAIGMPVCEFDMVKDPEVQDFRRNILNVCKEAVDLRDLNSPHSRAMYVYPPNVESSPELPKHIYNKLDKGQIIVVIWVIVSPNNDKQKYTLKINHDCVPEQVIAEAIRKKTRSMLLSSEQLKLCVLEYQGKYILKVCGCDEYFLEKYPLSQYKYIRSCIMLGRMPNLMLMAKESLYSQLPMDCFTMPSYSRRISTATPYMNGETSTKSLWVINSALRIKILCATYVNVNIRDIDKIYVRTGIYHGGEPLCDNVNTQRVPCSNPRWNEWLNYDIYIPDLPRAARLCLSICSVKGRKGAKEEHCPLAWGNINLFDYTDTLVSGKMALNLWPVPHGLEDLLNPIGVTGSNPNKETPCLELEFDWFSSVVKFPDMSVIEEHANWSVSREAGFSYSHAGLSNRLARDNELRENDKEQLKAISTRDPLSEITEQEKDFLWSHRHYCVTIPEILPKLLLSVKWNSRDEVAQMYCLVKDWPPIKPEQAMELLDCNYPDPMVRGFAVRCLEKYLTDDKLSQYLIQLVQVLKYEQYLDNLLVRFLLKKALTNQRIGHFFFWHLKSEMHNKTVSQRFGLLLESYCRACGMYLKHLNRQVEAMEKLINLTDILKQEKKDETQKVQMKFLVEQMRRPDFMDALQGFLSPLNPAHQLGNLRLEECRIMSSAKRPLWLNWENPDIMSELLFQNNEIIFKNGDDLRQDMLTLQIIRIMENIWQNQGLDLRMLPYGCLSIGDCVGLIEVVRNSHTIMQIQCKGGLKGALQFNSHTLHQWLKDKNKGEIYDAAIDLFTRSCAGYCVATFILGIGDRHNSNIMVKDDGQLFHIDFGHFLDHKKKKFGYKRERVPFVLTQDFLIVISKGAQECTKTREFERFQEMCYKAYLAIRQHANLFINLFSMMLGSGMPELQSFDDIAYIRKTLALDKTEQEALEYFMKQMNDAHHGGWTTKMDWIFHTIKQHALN
UniProt Q16832, sequence (whole entry, looked up): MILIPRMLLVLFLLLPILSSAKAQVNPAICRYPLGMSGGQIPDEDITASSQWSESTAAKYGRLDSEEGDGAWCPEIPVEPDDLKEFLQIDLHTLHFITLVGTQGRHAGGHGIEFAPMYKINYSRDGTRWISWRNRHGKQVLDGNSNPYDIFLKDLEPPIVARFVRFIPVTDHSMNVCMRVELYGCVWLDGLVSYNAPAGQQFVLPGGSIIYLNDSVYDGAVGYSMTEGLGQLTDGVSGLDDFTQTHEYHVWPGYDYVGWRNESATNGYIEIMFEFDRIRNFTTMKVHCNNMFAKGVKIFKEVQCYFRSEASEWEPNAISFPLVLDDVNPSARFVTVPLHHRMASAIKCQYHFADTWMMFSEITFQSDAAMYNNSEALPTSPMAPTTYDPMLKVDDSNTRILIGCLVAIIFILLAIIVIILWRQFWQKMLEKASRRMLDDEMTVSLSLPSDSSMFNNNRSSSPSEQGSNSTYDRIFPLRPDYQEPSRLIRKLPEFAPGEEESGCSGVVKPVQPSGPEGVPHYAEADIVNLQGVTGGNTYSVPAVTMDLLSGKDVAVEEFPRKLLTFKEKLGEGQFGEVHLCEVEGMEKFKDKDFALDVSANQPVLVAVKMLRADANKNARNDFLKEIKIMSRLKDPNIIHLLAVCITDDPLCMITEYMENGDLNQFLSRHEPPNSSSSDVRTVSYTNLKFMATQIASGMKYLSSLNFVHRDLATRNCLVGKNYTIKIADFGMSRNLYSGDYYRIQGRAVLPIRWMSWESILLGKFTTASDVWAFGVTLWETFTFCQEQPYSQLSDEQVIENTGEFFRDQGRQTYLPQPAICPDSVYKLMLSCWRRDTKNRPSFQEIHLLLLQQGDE

Nc1ncc(-c2nc(N3CCOCC3)nc(N3CCOCC3)n2)c(C(F)F)n1
remaining binding (MAP3K12 (Homo sapiens, UniProt Q12852); binding, competition with immobilised ligand; 10 µM): 91%

CC(C)CC(=O)OC[C@H]1O[C@@](C#N)(c2ccc3c(N)ncnn23)[C@H](O)[C@@H]1O
inhibition (NPY1R (Homo sapiens, UniProt P25929); cell-free assay; 20 µM): 2%

COc1ncccc1-c1cnn2ccc(N3CCN(C(=O)OC(C)C)CC3)nc12
remaining binding (PIK3CA (Homo sapiens, UniProt P42336); binding, competition with immobilised ligand; 1 µM): 81%

[2H]c1c([2H])c([C@]2([2H])CCCN2C(=O)C(C)(C)Oc2ccc3cn[nH]c3c2)c([2H])c([2H])c1C([2H])([2H])[2H]
remaining binding (PRKCD (Homo sapiens, UniProt Q05655); binding, competition with immobilised ligand; 1 µM): 79%

Oc1cccc(N2[C@@H]3CC[C@H]2CN(CCCc2ccccc2)C3)c1
Emax (OPRM1 (Homo sapiens, UniProt P35372); cAMP, agonist; OPRM1): 98.9%

c1cncc([C@@H]2CCCN2)c1
inhibition (DRD1 (Homo sapiens, UniProt P21728); ligand displacement; 50 µM): -11%

Cc1ncsc1-c1ccc([C@H](CC(=O)N2CCN(c3ccc(C#Cc4ccc(C(=O)N5CCC(n6cc(-c7ccc8c(c7)CCN8C(=O)Cc7cccc(OC(F)(F)F)c7)c7c(N)ncnc76)CC5)cc4)cn3)CC2)NC(=O)[C@@H]2C[C@@H](O)CN2C(=O)[C@@H](NC(=O)C2(F)CC2)C(C)(C)C)cc1
Dmax (RIPK1 (Homo sapiens, UniProt Q13546); protein level, degrader, western blot; U-937; 0.2 µM): 99%

C#Cc1n[nH]c2c(-c3cn(C(C)c4ccccn4)c(=O)[nH]c3=O)cc(F)cc12 (stereo not drawn)
inhibition (DDR2 (Homo sapiens, UniProt Q16832); enzyme activity, inhibitor; 1 µM): -4%

Cc1nn(C)cc1-c1nc2c(N3CCN(Cc4ccc(Cl)cc4)CC3)c(Cl)cnc2[nH]1
remaining binding (PAK3 (Homo sapiens, UniProt O75914); binding, competition with immobilised ligand; 1 µM): 32%

Excerpt of the above:
c1cncc([C@@H]2CCCN2)c1
inhibition (DRD1 (Homo sapiens, UniProt P21728); ligand displacement; 50 µM): -11%
